Results of several laboratories.
Protocols differ between the studies behind these lines. Several values in a cell are separate wells, animals, samples, runs or records. Numbers after ± are the reported error. Values after ≈ are worked out from the molar mass of the structure shown.

CNCC(=O)N[C@@H](CO)C(=O)N[C@H]1[C@H](O)[C@@H](O)[C@H](n2ccc(N)nc2=O)O[C@@H]1C(N)=O  inactivation activity (Potato virus Y; in vivo; 500 µg/mL): 76% and 78%
Cn1c(=O)ccc2ccc(F)c(CCNC[C@H]3CN(c4cnc5c(n4)NC(=O)CO5)C(=O)O3)c21  MIC50 (Shigella spp.): 0.03 µg/mL (≈ 0.064 µM)
Clc1ccc(-c2ccccc2/C=N/c2cccnc2Cl)cc1  viability reduction (Schistosoma mansoni; microscopic viability scoring; newly transformed schistosomula; 10 µM, 72 h, prescreen): 6.9%
CC(=O)N[C@H]1[C@@H](O[C@@H]2O[C@H](C[C@@H](O)[C@H]3O[C@@H](n4ccc(=O)[nH]c4=O)[C@H](O)[C@@H]3O)[C@H](O)[C@H](O)[C@H]2NC(=O)/C=C/CCCCCCCCCC(C)C)O[C@H](CO)[C@@H](O)[C@@H]1O  MIC50 (Cryptococcus gattii; alamar blue; C17): < 0.1 µg/mL
CC[C@H](C)[C@H](NC(=O)[C@H](C)NC(=O)[C@H](CCCCN)NC(=O)[C@H](CC(C)C)NC(=O)[C@H](C)NC(=O)[C@@H](NC(=O)[C@H](Cc1c[nH]cn1)NC(=O)[C@H](CC(C)C)NC(=O)[C@@H](NC(=O)[C@@H](NC(=O)[C@H](CCCCN)NC(=O)[C@H](C)NC(=O)[C@H](C)NC(=O)[C@H](CO)NC(=O)[C@H](CCCCN)NC(=O)[C@H](Cc1ccccc1)NC(=O)[C@@H](NC(=O)[C@H](CCCCN)NC(=O)[C@H](CC(C)C)NC(=O)[C@H](Cc1ccccc1)NC(=O)[C@H](CO)NC(=O)[C@H](CCCCN)NC(=O)[C@H](Cc1c[nH]c2ccccc12)NC(=O)[C@H](CCCCN)NC(C)=O)[C@@H](C)O)[C@@H](C)O)C(C)C)[C@@H](C)O)C(=O)N[C@@H](CO)C(=O)N[C@@H](CO)C(N)=O  MIC90 (Streptococcus pyogenes; erythromycin-sensitive; 21 strains): 32 µg/mL (≈ 10.9 µM)
Nc1ncnc2c([C@@H]3N[C@H](CO)[C@@H](O)[C@H]3O)c[nH]c12  inhibition (Rhinovirus A; viral replication; HRV2 HGP; 3 µM): 51.3%
OC(c1c(C(F)(F)F)nn(-c2ncccn2)c1Cl)C(F)(F)F (centres unmarked)  viability reduction (Schistosoma mansoni; microscopic viability scoring; newly transformed schistosomula; 10 µM, 72 h, prescreen): 17.3%
COc1cnc(OC)n2nc(NS(=O)(=O)c3c(OCC(F)F)cccc3C(F)(F)F)nc12  stem length inhibition (Arabidopsis thaliana; Col-0, seed germination, dark; 200 µg/mL, 7 days, 22 °C): 100%
CCn1c(=O)c(-c2cc[nH]n2)cc2c(C)nc(N)nc21  selectivity index (Enterovirus A71; RT-qPCR; RD; post-entry; reference: CC50 over IC50): 41.4
Cn1cc2c3c1C(=O)C(N)=CC3=[N+](C)CC2  inhibition (Saccharomyces cerevisiae; cell growth, liquid culture; BY4741; 100 µM, 24 h): 1.9%
CCCCn1nnnc1C(c1ccc(F)cc1)N1CCc2ccccc2C1 (centres unmarked)  viability reduction (Schistosoma mansoni; microscopic viability scoring; newly transformed schistosomula; 10 µM, 72 h, prescreen): 16.7%
COc1ccc2c(c[n+](C)c3c4cc5c(cc4ccc23)OCO5)c1OC  IC50 (Bovine alphaherpesvirus 1; viral replication; MDBK): 110 nM
C[C@]12CC[C@@H]3c4ccc(O)cc4CC[C@H]3[C@@H]1CC[C@@H]2O  mRNA level (Arabidopsis thaliana; qRT-PCR, refers to: NCED3; 1 µM, unit not given; reference: untreated): 1.27
CNC(C)C1CCC(N)C(OC2C(N)CC(N)C(OC3OCC(C)(O)C(NC)C3O)C2O)O1 (centres unmarked)  MLC (Proteus mirabilis; broth microdilution): 4 ± 1 µg/mL (≈ 8.38 µM)
Cc1ncc([N+](=O)[O-])n1CCO  MIC90 (Fusobacterium nucleatum): 0.25 µg/mL (≈ 1.46 µM)
O=C1C(=O)c2cc(NS(=O)(=O)c3ccc(OC(F)(F)F)cc3)ccc2-c2ccc(NS(=O)(=O)c3ccc(OC(F)(F)F)cc3)cc21  viability reduction (Schistosoma mansoni; microscopic viability scoring; newly transformed schistosomula; 10 µM, 72 h, prescreen): 100%
CC(C)=CCc1c(-c2ccc(O)cc2O)oc2c3c(cc(O)c2c1=O)OC(C)(C)C=C3  IC50 (Bovine alphaherpesvirus 1; viral replication; MDBK): 140 nM
CCCCCCCC(C)(C)c1cc(O)c2cc(Cc3ccccc3O)c(=O)oc2c1  viability reduction (Schistosoma mansoni; microscopic viability score; adult worms; 10 µM): 0%
CS(=O)(=O)CCCn1c(Cn2c(=O)n(CC(F)(F)F)c3ccncc32)cc2cc(Cl)ccc21  LS mean difference vs placebo (respiratory syncytial virus; RT-qPCR; hospitalized infants 1-24 months, nasal swab; oral, 8 mg/kg daily, day 28, cohort 6-24 months; reference: placebo): 0.72 log10 copies/mL
COc1ccc(C(c2nnnn2C(C)(C)C)N2CCc3ccccc3C2)cc1OC (centres unmarked)  viability reduction (Schistosoma mansoni; microscopic viability scoring; newly transformed schistosomula; 10 µM, 72 h, prescreen): 0%
NC(=O)c1ncn([C@@H]2O[C@H](CO)[C@@H](O)[C@H]2O)n1  EC50 (Dengue virus; viral replication; BHK-21, DENV3; 120 h): 61000 nM
O=c1c2ccccc2oc2ccc(I)cc12  viability reduction (Schistosoma mansoni; microscopic viability scoring; newly transformed schistosomula; 10 µM, 72 h, prescreen): 0%
CN[C@H](CC(C)C)C(=O)N[C@H]1C(=O)N[C@@H](CC(N)=O)C(=O)N[C@H]2C(=O)N[C@H]3C(=O)N[C@H](C(=O)N[C@H](C(=O)O)c4cc(O)cc(O)c4-c4cc3ccc4O)[C@H](O)c3ccc(c(Cl)c3)Oc3cc2cc(c3O[C@@H]2O[C@H](CO)[C@@H](O)[C@H](O)[C@H]2O[C@H]2C[C@](C)(N)[C@H](O)[C@H](C)O2)Oc2ccc(cc2Cl)[C@H]1O  MBC (Staphylococcus aureus; CAAS-2019-19 clinical blaZ-resistant isolate, PBS): 4 µg/mL
Nc1ncnc2c1ncn2[C@@H]1O[C@@H]2COP(=O)(O)O[C@H]3[C@@H](O)[C@H](n4cnc5c(=O)[nH]cnc54)O[C@@H]3COP(=O)(O)O[C@H]2[C@H]1O  fold enrichment (West Nile virus; RNA sequencing, refers to: pro-inflammatory cell recruitment R-HSA-9664424; HFF-1 cells; concentration not given, upregulated pathway; reference: WNV-infected untreated cells): 7.08
Cc1c2c(nn1C)CSCc1cc(n(C)n1)CSc1cc(c3ccccc3c1)OCCCc1c(C(=O)O)n(C)c3c-2c(Cl)ccc13  log2 fold change (Staphylococcus aureus; label-free proteomics, refers to: ald1; SA113; concentration not given; reference: untreated): -4.02
COC(=O)N[C@H](C(=O)N1CCC[C@H]1c1ncc(-c2ccc(-c3ccc(-c4cnc([C@@H]5CCCN5C(=O)[C@@H](NC(=O)OC)C(C)C)[nH]4)cc3)cc2)[nH]1)C(C)C  combination index (hepatitis C virus; HCV replicon; 90% effect level, added: IFN-α, ratio 1:1): 0.58 and 0.77
C[C@@H](O[C@H]1OCCN(Cc2n[nH]c(=O)[nH]2)[C@H]1c1ccc(F)cc1)c1cc(C(F)(F)F)cc(C(F)(F)F)c1  IC50 (Human immunodeficiency virus 1; viral replication; PBMC, CRF01_AE isolate from Thailand, X4, SI): 4790 nM
CC(C)C[C@H](NC(=O)[C@H](CCN)NC(=O)[C@H](CCN)NC(=O)[C@@H](Cc1ccccc1)NC(=O)[C@H](CC(C)C)NC(=O)[C@H](CCN)NC(=O)[C@H](CCN)NC(=O)[C@H](N)CCN)C(N)=O  MBC (Acinetobacter calcoaceticus; BHI agar spot plating; 24 h, 37 °C): > 128 µM
CC[C@H](C)[C@H](NC(=O)[C@H](CCCNC(=N)N)NC(=O)[C@H](Cc1c[nH]c2ccccc12)NC(=O)[C@H](CCCNC(=N)N)NC(=O)[C@H](Cc1c[nH]c2ccccc12)NC(=O)[C@H](Cc1c[nH]c2ccccc12)NC(=O)[C@H](Cc1c[nH]c2ccccc12)NC(=O)[C@H](CCCNC(=N)N)NC(=O)[C@H](Cc1c[nH]c2ccccc12)NC(=O)[C@@H](N)CCCNC(=N)N)C(N)=O  MIC (Candida albicans; broth microdilution; alveolar fluid isolate, RPMI 1640-MOPS; 48 h, 30 °C): 16 µM
CC1(C)SC2C(NC(=O)C(NC(=O)C3=C(O)C(Cc4ccccc4)NC3=O)c3ccccc3)C(=O)N2C1C(=O)O (centres unmarked)  MIC (Escherichia coli; broth microdilution; isolate IU 356 A, KPC-3, VIM-1, TEM; added: clavulanic acid 6 µg/mL): > 200 µg/mL
CC(C)C[C@H](NC(=O)[C@H](CCCNC(=N)N)NC(=O)[C@H](Cc1c[nH]c2ccccc12)NC(=O)[C@H](CCCNC(=N)N)NC(=O)[C@H](Cc1c[nH]c2ccccc12)NC(=O)[C@H](Cc1c[nH]c2ccccc12)NC(=O)[C@H](Cc1c[nH]c2ccccc12)NC(=O)[C@H](CCCNC(=N)N)NC(=O)[C@H](Cc1c[nH]c2ccccc12)NC(=O)[C@H](CCCNC(=N)N)NC(=O)CN)C(N)=O  MIC (Candida albicans; broth microdilution; CGMCC 2.209, RPMI 1640-MOPS; 48 h, 30 °C, added: NaCl 150 mM): 64 µM
CCCCCc1cc(OC)c2c(c1)OC(C)(C)CC2=O  viability reduction (Schistosoma mansoni; microscopic viability scoring; newly transformed schistosomula; 10 µM, 72 h, prescreen): 0%

For quick reference, copied from above:
CNC(C)C1CCC(N)C(OC2C(N)CC(N)C(OC3OCC(C)(O)C(NC)C3O)C2O)O1 (centres unmarked)  MLC (Proteus mirabilis; broth microdilution): 4 ± 1 µg/mL (≈ 8.38 µM)
CCCCCc1cc(OC)c2c(c1)OC(C)(C)CC2=O  viability reduction (Schistosoma mansoni; microscopic viability scoring; newly transformed schistosomula; 10 µM, 72 h, prescreen): 0%
C[C@@H](O[C@H]1OCCN(Cc2n[nH]c(=O)[nH]2)[C@H]1c1ccc(F)cc1)c1cc(C(F)(F)F)cc(C(F)(F)F)c1  IC50 (Human immunodeficiency virus 1; viral replication; PBMC, CRF01_AE isolate from Thailand, X4, SI): 4790 nM
COc1ccc(C(c2nnnn2C(C)(C)C)N2CCc3ccccc3C2)cc1OC (centres unmarked)  viability reduction (Schistosoma mansoni; microscopic viability scoring; newly transformed schistosomula; 10 µM, 72 h, prescreen): 0%
